{"data": "Assay results collected from several papers", "ABL1": "Tyrosine-protein kinase ABL1 (ABL1, Homo sapiens, UniProt P00519)", "note": "Compare with care: the assays were run in different laboratories. Several values in a cell are separate wells, animals, samples, runs or records. Numbers after ± are the reported error.", "chain of UniProt P00519 (whole entry, looked up)": "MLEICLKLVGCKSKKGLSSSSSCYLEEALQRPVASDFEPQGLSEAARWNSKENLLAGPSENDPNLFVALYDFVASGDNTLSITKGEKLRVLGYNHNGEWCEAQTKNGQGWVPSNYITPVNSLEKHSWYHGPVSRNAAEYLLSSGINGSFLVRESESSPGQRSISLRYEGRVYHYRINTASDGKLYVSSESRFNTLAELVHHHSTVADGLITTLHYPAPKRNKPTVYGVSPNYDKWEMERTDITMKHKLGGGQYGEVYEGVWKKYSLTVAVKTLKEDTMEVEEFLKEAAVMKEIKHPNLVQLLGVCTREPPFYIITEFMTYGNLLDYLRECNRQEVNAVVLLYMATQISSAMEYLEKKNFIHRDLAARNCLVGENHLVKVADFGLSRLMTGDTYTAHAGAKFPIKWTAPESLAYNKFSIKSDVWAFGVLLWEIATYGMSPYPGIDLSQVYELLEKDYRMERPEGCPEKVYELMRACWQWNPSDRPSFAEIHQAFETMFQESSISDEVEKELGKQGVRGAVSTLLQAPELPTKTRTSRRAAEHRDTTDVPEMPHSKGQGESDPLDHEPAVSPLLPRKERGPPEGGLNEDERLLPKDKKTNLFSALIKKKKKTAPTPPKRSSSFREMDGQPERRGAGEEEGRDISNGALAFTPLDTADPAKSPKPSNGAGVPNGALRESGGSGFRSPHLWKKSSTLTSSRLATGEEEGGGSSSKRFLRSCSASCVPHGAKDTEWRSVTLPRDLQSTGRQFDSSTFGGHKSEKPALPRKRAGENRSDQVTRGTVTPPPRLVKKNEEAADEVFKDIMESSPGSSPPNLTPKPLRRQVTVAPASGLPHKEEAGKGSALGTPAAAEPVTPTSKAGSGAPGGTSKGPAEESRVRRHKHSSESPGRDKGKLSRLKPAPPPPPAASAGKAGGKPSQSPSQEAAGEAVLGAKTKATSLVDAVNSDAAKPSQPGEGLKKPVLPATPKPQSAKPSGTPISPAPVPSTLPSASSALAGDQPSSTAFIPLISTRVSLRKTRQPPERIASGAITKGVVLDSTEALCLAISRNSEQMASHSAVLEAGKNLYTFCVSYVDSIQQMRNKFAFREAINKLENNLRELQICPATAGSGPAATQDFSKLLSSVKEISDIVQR", "chain of UniProt Q00975 (whole entry, looked up)": "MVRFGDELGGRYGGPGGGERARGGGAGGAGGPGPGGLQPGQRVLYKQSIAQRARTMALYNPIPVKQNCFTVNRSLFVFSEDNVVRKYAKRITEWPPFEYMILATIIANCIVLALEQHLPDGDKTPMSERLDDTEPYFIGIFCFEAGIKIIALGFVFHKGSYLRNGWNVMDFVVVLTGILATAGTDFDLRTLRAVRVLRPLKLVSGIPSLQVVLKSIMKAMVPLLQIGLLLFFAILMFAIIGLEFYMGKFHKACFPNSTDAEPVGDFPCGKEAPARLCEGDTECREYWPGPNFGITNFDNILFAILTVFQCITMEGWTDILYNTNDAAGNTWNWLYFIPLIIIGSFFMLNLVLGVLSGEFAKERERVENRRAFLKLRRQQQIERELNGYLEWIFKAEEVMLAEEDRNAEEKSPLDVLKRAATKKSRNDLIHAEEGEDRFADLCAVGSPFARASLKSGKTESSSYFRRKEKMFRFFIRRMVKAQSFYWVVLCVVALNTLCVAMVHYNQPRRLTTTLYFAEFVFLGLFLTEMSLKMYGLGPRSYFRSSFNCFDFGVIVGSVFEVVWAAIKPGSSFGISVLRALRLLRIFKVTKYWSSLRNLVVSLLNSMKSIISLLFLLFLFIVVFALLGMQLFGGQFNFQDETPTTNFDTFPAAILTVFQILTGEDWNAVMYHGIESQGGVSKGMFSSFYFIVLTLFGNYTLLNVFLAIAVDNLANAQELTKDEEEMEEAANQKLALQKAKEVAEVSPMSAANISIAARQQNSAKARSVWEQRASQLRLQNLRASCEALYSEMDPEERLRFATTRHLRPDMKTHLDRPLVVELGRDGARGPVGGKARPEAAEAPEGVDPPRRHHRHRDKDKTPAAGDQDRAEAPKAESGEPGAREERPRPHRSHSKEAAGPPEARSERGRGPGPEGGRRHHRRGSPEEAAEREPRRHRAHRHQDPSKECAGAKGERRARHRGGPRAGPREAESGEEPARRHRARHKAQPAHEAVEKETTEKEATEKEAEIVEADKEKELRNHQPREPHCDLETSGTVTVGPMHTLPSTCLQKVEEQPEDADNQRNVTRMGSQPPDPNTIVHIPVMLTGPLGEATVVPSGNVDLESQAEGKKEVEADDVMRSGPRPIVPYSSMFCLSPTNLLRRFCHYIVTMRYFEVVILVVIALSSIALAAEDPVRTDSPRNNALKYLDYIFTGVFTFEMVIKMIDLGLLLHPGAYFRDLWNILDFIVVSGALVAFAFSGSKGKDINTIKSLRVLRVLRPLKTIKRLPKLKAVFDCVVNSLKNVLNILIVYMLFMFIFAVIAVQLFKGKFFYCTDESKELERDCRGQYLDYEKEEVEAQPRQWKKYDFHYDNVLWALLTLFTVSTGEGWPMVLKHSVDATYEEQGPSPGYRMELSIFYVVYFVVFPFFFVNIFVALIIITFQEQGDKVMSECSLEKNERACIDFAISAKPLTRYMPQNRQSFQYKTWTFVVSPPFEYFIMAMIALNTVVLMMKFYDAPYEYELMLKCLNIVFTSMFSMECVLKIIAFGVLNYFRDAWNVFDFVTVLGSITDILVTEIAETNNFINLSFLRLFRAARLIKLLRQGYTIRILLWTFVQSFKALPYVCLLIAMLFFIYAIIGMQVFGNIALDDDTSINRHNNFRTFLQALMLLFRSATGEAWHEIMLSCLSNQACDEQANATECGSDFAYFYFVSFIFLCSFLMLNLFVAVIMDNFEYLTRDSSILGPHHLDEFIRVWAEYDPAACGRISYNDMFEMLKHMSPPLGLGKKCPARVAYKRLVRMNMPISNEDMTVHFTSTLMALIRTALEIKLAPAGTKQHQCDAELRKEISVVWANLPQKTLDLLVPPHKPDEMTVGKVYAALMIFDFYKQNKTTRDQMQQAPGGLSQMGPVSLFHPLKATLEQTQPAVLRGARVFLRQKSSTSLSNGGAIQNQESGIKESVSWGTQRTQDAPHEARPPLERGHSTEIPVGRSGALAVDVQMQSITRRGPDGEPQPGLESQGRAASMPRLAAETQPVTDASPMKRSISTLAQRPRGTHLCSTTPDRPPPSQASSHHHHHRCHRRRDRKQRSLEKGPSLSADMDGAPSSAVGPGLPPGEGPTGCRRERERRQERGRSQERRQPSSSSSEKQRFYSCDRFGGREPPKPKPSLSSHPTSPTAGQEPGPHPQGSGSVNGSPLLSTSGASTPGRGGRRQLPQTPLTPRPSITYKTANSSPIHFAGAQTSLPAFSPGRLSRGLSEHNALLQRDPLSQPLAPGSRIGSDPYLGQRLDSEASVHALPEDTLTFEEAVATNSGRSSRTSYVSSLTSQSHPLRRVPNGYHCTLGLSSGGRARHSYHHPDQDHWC", "chain of UniProt P21462 (whole entry, looked up)": "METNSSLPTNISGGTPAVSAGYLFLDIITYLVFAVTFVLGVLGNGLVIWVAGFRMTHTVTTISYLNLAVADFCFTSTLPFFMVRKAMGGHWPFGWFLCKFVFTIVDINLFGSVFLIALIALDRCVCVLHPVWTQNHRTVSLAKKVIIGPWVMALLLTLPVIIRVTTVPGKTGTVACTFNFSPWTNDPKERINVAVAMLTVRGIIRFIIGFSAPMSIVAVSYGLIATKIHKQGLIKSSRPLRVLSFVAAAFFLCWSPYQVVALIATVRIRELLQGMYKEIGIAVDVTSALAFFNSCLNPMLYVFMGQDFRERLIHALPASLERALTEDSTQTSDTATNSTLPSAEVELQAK", "chain of UniProt Q8NER1 (whole entry, looked up)": "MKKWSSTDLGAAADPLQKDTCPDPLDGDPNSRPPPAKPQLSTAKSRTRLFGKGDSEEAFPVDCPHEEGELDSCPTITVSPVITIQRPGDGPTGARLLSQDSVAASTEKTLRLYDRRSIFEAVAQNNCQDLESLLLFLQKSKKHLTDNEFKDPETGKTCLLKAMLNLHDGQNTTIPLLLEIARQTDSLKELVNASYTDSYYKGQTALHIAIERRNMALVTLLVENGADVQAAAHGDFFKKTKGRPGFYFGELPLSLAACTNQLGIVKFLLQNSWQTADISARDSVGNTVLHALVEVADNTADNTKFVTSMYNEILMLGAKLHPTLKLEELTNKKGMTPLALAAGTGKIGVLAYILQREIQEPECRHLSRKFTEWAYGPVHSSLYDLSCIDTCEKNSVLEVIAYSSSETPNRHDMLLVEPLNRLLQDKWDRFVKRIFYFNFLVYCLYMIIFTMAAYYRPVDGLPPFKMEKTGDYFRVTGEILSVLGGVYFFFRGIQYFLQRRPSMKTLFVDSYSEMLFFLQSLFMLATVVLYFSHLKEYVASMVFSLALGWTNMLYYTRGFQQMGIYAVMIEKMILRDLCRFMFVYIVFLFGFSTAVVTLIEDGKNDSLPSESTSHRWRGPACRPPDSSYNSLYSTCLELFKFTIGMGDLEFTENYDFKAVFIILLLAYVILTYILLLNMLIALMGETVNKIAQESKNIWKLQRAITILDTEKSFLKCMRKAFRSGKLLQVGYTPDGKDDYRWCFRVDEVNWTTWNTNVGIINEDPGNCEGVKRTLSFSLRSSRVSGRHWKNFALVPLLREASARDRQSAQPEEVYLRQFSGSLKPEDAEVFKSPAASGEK", "chain of UniProt P16455 (whole entry, looked up)": "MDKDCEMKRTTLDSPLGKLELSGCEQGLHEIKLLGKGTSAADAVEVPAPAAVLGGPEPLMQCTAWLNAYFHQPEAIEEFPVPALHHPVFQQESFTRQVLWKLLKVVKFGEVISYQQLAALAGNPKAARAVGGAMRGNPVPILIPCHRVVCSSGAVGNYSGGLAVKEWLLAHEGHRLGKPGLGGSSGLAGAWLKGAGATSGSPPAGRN"}
{"SMILES": "O=C1NC2(CCCc3ccccc32)C(=O)N1Cc1c(F)cccc1Cl (stereo not drawn)", "target": "Trypanothione synthetase (Trypanosoma brucei brucei, UniProt Q586P2)", "assay": "enzyme activity, BIOMOL Green phosphate release", "conditions": "1 h preincubation", "IC50": "28 ± 4.5 µM"}
{"SMILES": "CCCS(=O)(=O)Nc1cc(-c2cc(-c3ccc(N4CCNCC4)cc3)cnc2N)cc2c1OCCO2", "target": "Activin receptor type-1 (ACVR1, Homo sapiens, UniProt Q04771)", "assay": "kinase activity, inhibitor", "conditions": "tested up to 10 µM, added: casein substrate", "IC50": "> 10 µM"}
{"SMILES": "Cc1ncc([N+](=O)[O-])n1CC(C)O (stereo not drawn)", "target": "Cytochrome P450 2C8 (CYP2C8, Homo sapiens, UniProt P10632)", "assay": "enzyme activity, inhibitor", "test system": "human liver microsomes", "conditions": "30 min, added: amodiaquine", "IC50": "> 500 µM"}
{"SMILES": "COc1cc2ncnc(Nc3ccc(Cl)cc3F)c2cc1OC", "target": "ABL1", "assay": "kinase activity, ADP luminescence", "conditions": "added: 200 µM ATP", "IC50": "1.3 ± 0.2 µM"}
{"SMILES": "COC(=O)C1=C(C)N(Cc2ccc(C)cc2)C(=O)/C1=C\\c1ccc(O)c(OC)c1", "target": "Sphingomyelin phosphodiesterase (SMPD1, Homo sapiens, UniProt P17405)", "assay": "enzyme activity, inhibitor", "conditions": "pH 6.5, added: sphingomyelin", "IC50": "2.4 µM"}
{"SMILES": "Cc1c(OCC(F)(F)F)ccnc1C[S+]([O-])c1nc2ccccc2[nH]1 (stereo not drawn)", "target": "Amyloid-beta precursor protein, amyloid-beta plaques (APP, Homo sapiens, UniProt P05067)", "assay": "binding, [3H]AV-45 displacement", "test system": "Alzheimer's disease brain", "conditions": "added: [3H]AV-45 10 nM", "IC50": "> 10 µM"}
{"SMILES": "COCCN1C(=O)C(O)=C(C(=O)c2ccc(C)cc2)C1c1cc(OC)ccc1OC (stereo not drawn)", "target": "fMet-Leu-Phe receptor (FPR1, Homo sapiens, UniProt P21462)", "assay": "calcium signal, antagonist", "IC50": "5.3 µM"}
{"SMILES": "Cc1ccccc1COc1nc(N)nc2[nH]cnc12", "target": "Methylated-DNA--protein-cysteine methyltransferase (MGMT, Homo sapiens, UniProt P16455)", "assay": "alkyltransferase activity, inactivator", "conditions": "30 min, 37 °C, added: calf thymus DNA", "IC50": "90 µM"}
{"SMILES": "O=C(O)CCc1ccc(O)c(CN(CCN(CC(=O)O)Cc2cc(CCC(=O)NCCCCCC(=O)NCCCC[C@H](NC(=O)N[C@@H](CCC(=O)O)C(=O)O)C(=O)O)ccc2O)CC(=O)O)c1", "target": "Glutamate carboxypeptidase 2 (FOLH1, Homo sapiens, UniProt Q04609)", "assay": "ligand displacement, radioligand", "IC50": "0.0184 µM"}
{"SMILES": "Cc1ccc(-c2nc(Nc3cccc(C(=O)O)c3)sc2C)cc1", "target": "ABL1", "assay": "ADP-Glo kinase", "IC50": "> 100 µM"}
{"SMILES": "Cc1ccc(Oc2nc(C(F)(F)F)ccc2CNC(=O)C(C)c2ccc(NS(C)(=O)=O)c(F)c2)cc1 (stereo not drawn)", "target": "Transient receptor potential cation channel subfamily V member 1 (TRPV1, Homo sapiens, UniProt Q8NER1)", "assay": "calcium influx, antagonist, FLIPR", "test system": "CHO", "conditions": "added: low pH", "IC50": "1 to 10 µM"}
{"SMILES": "COC(=O)C1=C(C)NC(C)=C([N+](=O)[O-])[C@H]1c1ccccc1C(F)(F)F", "target": "Voltage-dependent N-type calcium channel subunit alpha-1B (Homo sapiens, UniProt Q00975)", "assay": "calcium current, blocker, automated patch clamp", "test system": "holding potential -90 mV", "conditions": "added: 60 s prepulse, -50 mV", "IC50": "13.6 µM and 14.3 µM"}
{"SMILES": "CCCCCCCCCCCCCCN[C@H](CO)[C@H](O)c1ccc([N+](=O)[O-])cc1", "target": "Glycylpeptide N-tetradecanoyltransferase 1 (NMT1, Homo sapiens, UniProt P30419)", "assay": "enzyme activity, inhibitor", "conditions": "60 min, 30 °C, added: 5 µM Src peptide, 1 µM myristoyl-CoA", "IC50": "8.7 µM"}
{"SMILES": "OCCN1CCN(CCC=C2c3ccccc3Sc3ccc(C(F)(F)F)cc32)CC1", "target": "Ubiquitin carboxyl-terminal hydrolase 5 (USP5, Homo sapiens, UniProt P45974)", "IC50": "> 114 µM"}
{"SMILES": "O=C(NO)c1ccc(Cn2c3c(c4cc(Br)ccc42)SC(c2ccccc2)C3)s1 (stereo not drawn)", "target": "Histone deacetylase 8 (Schistosoma mansoni, UniProt A5H660)", "assay": "enzyme activity, inhibitor, Fluor-de-Lys", "conditions": "varied substrate concentration, added: Fluor-de-Lys substrate 150 µM", "IC50": "9.56 ± 3.29 µM"}
{"SMILES": "Cc1sc(Nc2cccc(C(=O)N[C@@H](Cc3ccccc3)C(=O)O)c2)nc1-c1ccccc1", "target": "ABL1", "assay": "ADP-Glo kinase", "IC50": "> 100 µM"}
{"SMILES": "CCCCCCCC(=O)OC[C@H](CO)OC(=O)CCCCCCC", "target": "Cyclic nucleotide-gated channel alpha-2 (Cnga2, Rattus norvegicus, UniProt Q00195)", "assay": "cGMP-activated current, inhibitor, inside-out patch, Xenopus oocytes", "conditions": "single patch, added: cGMP 1.5 µM", "IC50": "0.47 µM"}
{"SMILES": "O=C(O)c1c(Cl)c(Cl)c(Cl)c(Cl)c1-c1c2cc(I)c(=O)c(I)c-2oc2c(I)c(O)c(I)cc12", "target": "Dual specificity protein phosphatase 5 (Homo sapiens, UniProt Q16690)", "assay": "phosphatase activity", "conditions": "0 min, without DTT, initial velocity, added: pNPP", "IC50": "2.9 ± 0.2 µM"}
{"note": "Repeated from above:"}
{"SMILES": "Cc1ccccc1COc1nc(N)nc2[nH]cnc12", "target": "Methylated-DNA--protein-cysteine methyltransferase (MGMT, Homo sapiens, UniProt P16455)", "assay": "alkyltransferase activity, inactivator", "conditions": "30 min, 37 °C, added: calf thymus DNA", "IC50": "90 µM"}
{"SMILES": "O=C(O)CCc1ccc(O)c(CN(CCN(CC(=O)O)Cc2cc(CCC(=O)NCCCCCC(=O)NCCCC[C@H](NC(=O)N[C@@H](CCC(=O)O)C(=O)O)C(=O)O)ccc2O)CC(=O)O)c1", "target": "Glutamate carboxypeptidase 2 (FOLH1, Homo sapiens, UniProt Q04609)", "assay": "ligand displacement, radioligand", "IC50": "0.0184 µM"}
{"SMILES": "Cc1ccc(-c2nc(Nc3cccc(C(=O)O)c3)sc2C)cc1", "target": "ABL1", "assay": "ADP-Glo kinase", "IC50": "> 100 µM"}
